{"data": "Published values pooled from the literature", "note": "Lines come from different studies, so protocols differ. Numbers after ± are the reported error.", "chain of UniProt P20782 (whole entry, unmodified, looked up)": "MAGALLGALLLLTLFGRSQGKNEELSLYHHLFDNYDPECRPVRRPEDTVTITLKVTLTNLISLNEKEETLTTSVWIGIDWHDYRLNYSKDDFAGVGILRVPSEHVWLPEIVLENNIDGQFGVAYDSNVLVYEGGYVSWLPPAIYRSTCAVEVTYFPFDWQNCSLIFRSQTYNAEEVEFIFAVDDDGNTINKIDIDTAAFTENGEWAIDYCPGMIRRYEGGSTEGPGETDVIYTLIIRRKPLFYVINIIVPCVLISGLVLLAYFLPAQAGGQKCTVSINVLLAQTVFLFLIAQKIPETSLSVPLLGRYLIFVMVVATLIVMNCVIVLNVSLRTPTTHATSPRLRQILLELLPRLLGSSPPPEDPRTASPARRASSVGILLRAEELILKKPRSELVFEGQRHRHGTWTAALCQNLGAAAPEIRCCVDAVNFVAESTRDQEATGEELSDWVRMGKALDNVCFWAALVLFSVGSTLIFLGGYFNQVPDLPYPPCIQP", "chain of UniProt P02716 (whole entry, unmodified, looked up)": "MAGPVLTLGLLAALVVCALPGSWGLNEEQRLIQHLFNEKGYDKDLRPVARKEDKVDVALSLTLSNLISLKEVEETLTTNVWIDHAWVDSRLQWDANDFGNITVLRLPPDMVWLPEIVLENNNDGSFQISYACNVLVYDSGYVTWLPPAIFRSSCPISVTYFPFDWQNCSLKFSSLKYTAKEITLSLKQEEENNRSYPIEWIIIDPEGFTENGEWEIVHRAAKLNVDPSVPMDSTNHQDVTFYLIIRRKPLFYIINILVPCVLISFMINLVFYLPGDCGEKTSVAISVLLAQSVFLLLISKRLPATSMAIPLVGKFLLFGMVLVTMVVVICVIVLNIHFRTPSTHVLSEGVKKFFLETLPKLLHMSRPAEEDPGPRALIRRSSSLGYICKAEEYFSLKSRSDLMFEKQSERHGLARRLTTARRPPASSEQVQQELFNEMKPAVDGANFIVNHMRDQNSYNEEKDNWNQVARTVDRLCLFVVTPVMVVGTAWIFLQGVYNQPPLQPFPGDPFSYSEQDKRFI", "chain of UniProt P04756 (whole entry, unmodified, looked up)": "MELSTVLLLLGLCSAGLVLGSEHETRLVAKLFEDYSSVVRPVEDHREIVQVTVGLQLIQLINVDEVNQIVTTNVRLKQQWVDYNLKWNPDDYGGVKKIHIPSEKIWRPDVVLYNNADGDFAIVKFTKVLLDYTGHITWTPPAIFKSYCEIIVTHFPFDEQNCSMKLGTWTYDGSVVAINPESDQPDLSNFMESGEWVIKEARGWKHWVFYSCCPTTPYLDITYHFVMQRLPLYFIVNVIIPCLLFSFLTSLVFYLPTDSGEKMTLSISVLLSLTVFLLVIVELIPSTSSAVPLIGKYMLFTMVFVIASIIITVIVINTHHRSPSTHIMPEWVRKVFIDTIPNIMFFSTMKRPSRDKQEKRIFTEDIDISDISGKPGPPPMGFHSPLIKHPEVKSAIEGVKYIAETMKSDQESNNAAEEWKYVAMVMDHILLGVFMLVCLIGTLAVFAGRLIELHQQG", "chain of UniProt Q15746 (whole entry, looked up)": "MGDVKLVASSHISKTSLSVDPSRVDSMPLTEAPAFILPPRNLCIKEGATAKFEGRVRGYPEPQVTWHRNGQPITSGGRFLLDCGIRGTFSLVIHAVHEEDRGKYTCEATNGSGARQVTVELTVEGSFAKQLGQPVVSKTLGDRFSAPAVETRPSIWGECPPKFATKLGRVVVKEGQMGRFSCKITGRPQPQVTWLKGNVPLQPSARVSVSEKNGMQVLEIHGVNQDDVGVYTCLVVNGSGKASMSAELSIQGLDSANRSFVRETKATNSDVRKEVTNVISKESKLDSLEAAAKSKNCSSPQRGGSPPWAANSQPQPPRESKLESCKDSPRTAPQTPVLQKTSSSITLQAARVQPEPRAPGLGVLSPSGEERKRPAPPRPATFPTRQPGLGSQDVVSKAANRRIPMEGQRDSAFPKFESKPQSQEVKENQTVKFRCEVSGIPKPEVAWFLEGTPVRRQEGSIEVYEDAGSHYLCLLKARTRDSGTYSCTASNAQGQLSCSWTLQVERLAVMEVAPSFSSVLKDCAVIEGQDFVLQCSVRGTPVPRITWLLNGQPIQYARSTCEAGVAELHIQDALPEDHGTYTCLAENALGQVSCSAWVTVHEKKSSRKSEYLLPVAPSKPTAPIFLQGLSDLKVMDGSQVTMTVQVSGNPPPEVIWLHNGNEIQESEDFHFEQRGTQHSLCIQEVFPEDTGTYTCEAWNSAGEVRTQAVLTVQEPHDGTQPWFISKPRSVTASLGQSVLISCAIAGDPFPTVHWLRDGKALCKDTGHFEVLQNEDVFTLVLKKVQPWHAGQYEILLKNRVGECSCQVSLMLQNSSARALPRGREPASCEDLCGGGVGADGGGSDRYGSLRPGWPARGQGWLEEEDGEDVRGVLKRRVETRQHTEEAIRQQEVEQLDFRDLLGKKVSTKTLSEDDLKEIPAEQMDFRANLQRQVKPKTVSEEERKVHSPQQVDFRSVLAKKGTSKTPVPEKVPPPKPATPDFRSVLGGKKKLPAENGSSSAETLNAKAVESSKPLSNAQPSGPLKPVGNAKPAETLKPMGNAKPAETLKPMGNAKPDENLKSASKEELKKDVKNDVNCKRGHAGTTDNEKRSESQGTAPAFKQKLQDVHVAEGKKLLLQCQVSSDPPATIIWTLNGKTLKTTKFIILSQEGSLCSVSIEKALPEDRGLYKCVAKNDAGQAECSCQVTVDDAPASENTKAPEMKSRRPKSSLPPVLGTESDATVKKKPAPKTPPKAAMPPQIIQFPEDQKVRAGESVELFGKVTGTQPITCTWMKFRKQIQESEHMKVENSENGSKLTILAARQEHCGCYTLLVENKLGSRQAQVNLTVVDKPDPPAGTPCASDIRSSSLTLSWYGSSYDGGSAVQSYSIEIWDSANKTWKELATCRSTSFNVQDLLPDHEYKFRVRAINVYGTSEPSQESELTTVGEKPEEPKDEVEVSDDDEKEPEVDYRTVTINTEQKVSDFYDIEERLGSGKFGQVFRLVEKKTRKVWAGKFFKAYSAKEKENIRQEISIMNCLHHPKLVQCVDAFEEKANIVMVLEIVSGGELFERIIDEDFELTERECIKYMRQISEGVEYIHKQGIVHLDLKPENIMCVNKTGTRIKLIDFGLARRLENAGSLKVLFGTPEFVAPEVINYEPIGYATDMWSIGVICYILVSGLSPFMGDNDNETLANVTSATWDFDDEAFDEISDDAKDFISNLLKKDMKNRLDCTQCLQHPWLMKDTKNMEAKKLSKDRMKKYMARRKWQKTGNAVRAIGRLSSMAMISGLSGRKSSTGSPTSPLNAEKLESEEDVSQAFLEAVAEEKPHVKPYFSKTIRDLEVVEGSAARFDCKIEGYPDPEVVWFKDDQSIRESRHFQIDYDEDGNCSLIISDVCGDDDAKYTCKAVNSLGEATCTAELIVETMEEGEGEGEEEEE", "chain of UniProt Q02153 (whole entry, unmodified, looked up)": "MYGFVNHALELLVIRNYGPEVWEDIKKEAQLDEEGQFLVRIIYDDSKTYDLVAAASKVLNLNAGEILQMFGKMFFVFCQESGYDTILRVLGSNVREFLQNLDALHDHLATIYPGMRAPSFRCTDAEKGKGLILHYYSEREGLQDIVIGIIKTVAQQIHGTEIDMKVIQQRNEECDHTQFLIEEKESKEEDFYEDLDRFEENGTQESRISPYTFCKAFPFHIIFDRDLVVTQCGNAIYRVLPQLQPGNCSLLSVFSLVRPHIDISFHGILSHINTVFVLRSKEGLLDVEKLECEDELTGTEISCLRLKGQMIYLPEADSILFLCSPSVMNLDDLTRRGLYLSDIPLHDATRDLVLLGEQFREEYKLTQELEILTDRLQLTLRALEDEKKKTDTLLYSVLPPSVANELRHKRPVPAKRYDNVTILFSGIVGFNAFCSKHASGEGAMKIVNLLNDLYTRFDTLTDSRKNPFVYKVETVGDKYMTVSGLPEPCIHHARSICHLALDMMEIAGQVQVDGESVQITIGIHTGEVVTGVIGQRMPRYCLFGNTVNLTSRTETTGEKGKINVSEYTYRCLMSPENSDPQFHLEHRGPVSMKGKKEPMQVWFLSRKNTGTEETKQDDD", "chain of UniProt Q7M4L6 (whole entry, looked up)": "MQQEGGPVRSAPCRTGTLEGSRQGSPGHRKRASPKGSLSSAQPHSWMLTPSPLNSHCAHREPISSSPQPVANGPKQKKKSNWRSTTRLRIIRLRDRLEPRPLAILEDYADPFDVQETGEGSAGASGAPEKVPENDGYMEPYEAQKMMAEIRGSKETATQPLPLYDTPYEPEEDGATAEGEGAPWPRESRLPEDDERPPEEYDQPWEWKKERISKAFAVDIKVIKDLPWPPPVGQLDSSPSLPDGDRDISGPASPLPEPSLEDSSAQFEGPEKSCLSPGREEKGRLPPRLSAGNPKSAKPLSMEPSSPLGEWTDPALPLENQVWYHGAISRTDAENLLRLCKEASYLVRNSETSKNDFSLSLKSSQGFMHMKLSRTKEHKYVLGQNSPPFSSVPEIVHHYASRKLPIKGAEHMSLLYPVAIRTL", "chain of UniProt P48039 (whole entry, looked up)": "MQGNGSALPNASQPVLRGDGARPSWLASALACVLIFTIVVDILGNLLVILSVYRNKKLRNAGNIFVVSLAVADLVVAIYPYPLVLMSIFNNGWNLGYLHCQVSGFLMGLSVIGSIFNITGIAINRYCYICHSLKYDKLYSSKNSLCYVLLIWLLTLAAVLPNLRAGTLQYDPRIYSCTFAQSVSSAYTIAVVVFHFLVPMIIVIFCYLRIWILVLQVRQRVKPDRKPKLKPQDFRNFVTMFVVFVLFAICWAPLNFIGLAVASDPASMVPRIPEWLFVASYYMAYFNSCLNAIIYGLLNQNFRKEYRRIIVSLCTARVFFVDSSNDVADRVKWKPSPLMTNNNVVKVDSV"}
{"SMILES": "O=C(O)CNCP(=O)(O)O", "tested on": "EPSP synthase (Zea mays, UniProt A0A1D6NVZ6, K358R/P168S/P188S/T164I)", "quantity": "Ki", "value": "871 ± 54 µM"}
{"SMILES": "COc1cc2c(Oc3ccc4[nH]c(C)cc4c3F)ccnc2cc1OCC1(N)CC1", "test system": "paediatric recurrent refractory sarcoma", "setting": "concentration not given, whole group", "quantity": "grade 3 Hyperthyroidism", "value": "0%"}
{"SMILES": "O=C(O)c1ccc(CN2C(=O)CN(C(=O)c3ccco3)c3cc(-c4ccccc4)c(Oc4ccc(C(=O)O)cc4)cc32)cc1", "tested on": "Soluble guanylate cyclase alpha1/beta1 complex (Homo sapiens, UniProt Q02108+Q02153, H105A)", "test": "enzyme activity, activator", "quantity": "EC50", "value": "1800 nM"}
{"SMILES": "C[C@@H](O)[C@@H](CO)NC(=O)[C@@H](CCCNC(=N)N)NC(=O)[C@@H]1CCCN1C(=O)[C@@H]1CSSC[C@H](NC(=O)[C@H](Cc2ccccc2)NC(=O)CN2CCN(CC(=O)O)CCN(CC(=O)O)CCN(CC(=O)O)CC2)C(=O)N[C@@H](Cc2ccc(O)cc2)C(=O)N[C@@H](Cc2ccccc2)C(=O)N[C@@H](CCC(N)=O)C(=O)N[C@@H](CC(N)=O)C(=O)N1 [gallium-68 labelled]", "test system": "Wistar rat, brain", "setting": "intravenous, 8 MBq, 120 min, group mean", "quantity": "tissue uptake", "value": "0.01 %ID/g"}
{"SMILES": "CN1CCC[C@H]1c1cccnc1", "tested on": "Chrnd/Chrna1/Chrne (Mus musculus, UniProt P02716+P04756+P20782, G173R)", "quantity": "Kd", "value": "32 µM"}
{"SMILES": "O=C(c1ccc(Cl)cc1)N1CCN2C(=O)N(OC(=O)N3CCOc4ccccc43)C(=O)C2C1 (stereo not drawn)", "tested on": "Protein phosphatase methylesterase 1 (Homo sapiens, UniProt Q9Y570)", "test": "enzyme activity, inhibitor, MS-based ABPP", "test system": "SW-620 in situ", "setting": "10 µM, 2 h, 37 °C", "how to read": "relative to: compound over DMSO, lower = stronger inhibition", "quantity": "median ratio", "value": 1.05}
{"SMILES": "CSCC[C@H](NC(=O)CNC(=O)[C@H](Cc1ccccc1)NC(=O)[C@H](CC(=O)O)NC(=O)CNC(=O)c1ccc2c(c1)C(=O)OC21c2ccc(N(C)C)cc2Oc2cc(N(C)C)ccc21)C(=O)N[C@@H](CO)C(=O)N[C@@H](CCCNC(=N)N)C(=O)N[C@@H](CC(=O)O)C(=O)N[C@H](C(=O)N[C@@H](Cc1ccc(OP(=O)(O)O)cc1)C(=O)N[C@@H](CO)C(=O)N[C@H](C(=O)N[C@@H](CC(=O)O)C(=O)N[C@@H](Cc1ccc(O)cc1)C(=O)N[C@@H](Cc1ccc(O)cc1)C(=O)N[C@@H](CCCNC(=N)N)C(=O)N[C@H](C(=O)N[C@@H](CC(=O)O)C(=O)O)C(C)C)[C@@H](C)O)C(C)C", "tested on": "SH2 domain-containing adapter protein F, SH2 domain (SHF, Homo sapiens, UniProt Q7M4L6)", "test": "binding", "quantity": "Kd", "value": "1.4 µM"}
{"SMILES": "C[N+](C)(C)C", "tested on": "Chrnd/Chrna1/Chrne (Mus musculus, UniProt P02716+P04756+P20782, G173K/S470W)", "test": "single-channel kinetics", "setting": "K chain side site", "quantity": "Kd", "value": "17.2 µM"}
{"SMILES": "CC1(CNC(=O)[C@H](CN)NC(=O)c2ccc(-c3ccccc3)cc2)NC(=O)NC1=O (stereo partly drawn)", "tested on": "UDP-3-O-acyl-N-acetylglucosamine deacetylase (Pseudomonas aeruginosa, UniProt P47205, C40S)", "test": "binding", "quantity": "Kd", "value": "> 100 µM"}
{"SMILES": "CC[C@H](C)[C@@H]1NC(=O)[C@@H]2CCCN2C(=O)[C@H](CC(C)C)NC(=O)[C@H](CC(C)C)NC(=O)CNC(=O)[C@@H](NC(=O)[C@@H](NC(=O)[C@H](CC(=O)O)NC(=O)CNC(=O)[C@@H](NC(=O)[C@H](C)NC(=O)CNC(=O)[C@H](CCCCN)NC(=O)[C@H](CC(C)C)NC(=O)[C@H](CC(C)C)NC(=O)[C@H](CCCCN)NC(=O)CNC(=O)[C@@H](NC(=O)[C@@H](N)CC(C)C)C(C)C)C(C)C)C(C)C)CSSC[C@@H](C(=O)O)NC1=O", "test": "RNA-seq, measured: Plekhg6", "test system": "mouse, traumatic brain injury model, frontal cortex and hippocampus", "setting": "dose not given", "how to read": "relative to: TBI alone", "quantity": "log2 fold change", "value": -1.76}
{"SMILES": "COc1cc(Nc2ncc(F)c(Nc3ccc4c(n3)NC(=O)C(C)(C)O4)n2)cc(OC)c1OC", "tested on": "Melatonin receptor type 1A (MTNR1A, Homo sapiens, UniProt P48039)", "quantity": "IC50", "value": "> 10 µM"}
{"SMILES": "C[C@H]1CN(c2n[nH]c3nc(N[C@H]4CC[C@H](NS(=O)(=O)CCC(F)(F)F)CC4)ncc23)CCO1", "tested on": "Myosin light chain kinase, smooth muscle (MYLK, Homo sapiens, UniProt Q15746)", "test": "biochemical", "quantity": "IC50", "value": "≥ 20 µM"}
